{"data": "Published values collected from several papers", "note": "A part holds a random share of what one study measured. Substitutions count along the parent as printed."}
{"data": "Set 1", "target": "Phosphate system positive regulatory protein PHO4, full length, GST-tagged (PHO4, Saccharomyces cerevisiae, UniProt P07270, residues 1-312)", "technique": "competition protein-binding microarray", "molecule type": "double-stranded DNA, one strand shown", "medium": "in vitro", "concentration": "2 µM", "notes": "whole 60-bp probe, lowest competitor level", "together with": "Cbf1 competitor, 0.05 µM", "direction": "higher = stronger binding", "Target sequence (chain)": "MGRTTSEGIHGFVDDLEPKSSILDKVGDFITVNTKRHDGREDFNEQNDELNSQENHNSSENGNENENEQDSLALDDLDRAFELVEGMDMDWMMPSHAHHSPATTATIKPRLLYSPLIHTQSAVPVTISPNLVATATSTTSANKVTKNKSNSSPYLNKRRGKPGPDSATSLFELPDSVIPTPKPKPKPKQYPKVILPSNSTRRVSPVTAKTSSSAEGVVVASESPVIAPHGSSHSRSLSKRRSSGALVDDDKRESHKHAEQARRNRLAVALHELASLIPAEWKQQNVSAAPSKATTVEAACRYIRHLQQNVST"}
{"Sequence": "GTTCTTGCGATGAGCTGCCCTTGCAAATTTTTCACCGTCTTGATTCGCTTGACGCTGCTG", "fluorescence intensity [a.u.]": 5170}
{"Sequence": "TGCGCAACAACTTGCTTGGTGGGTGTATGTCTAGAAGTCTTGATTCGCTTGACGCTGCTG", "fluorescence intensity [a.u.]": 3790}
{"Sequence": "CATACCCAACCTTGTCGAGTGGGTGAAGATATTTGTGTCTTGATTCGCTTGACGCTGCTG", "fluorescence intensity [a.u.]": 3740}
{"Sequence": "CAATTTCATATTCACCACGTGCCGAACTTTGGGATGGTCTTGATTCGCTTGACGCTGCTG", "fluorescence intensity [a.u.]": 18900}
{"Sequence": "TAAACGAGAGAGATGGGCATGACAGTAGGTAGGGCAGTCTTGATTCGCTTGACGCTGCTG", "fluorescence intensity [a.u.]": 4550}
{"Sequence": "AAATTACTAAGTTTTCACGTGGTTTACCCCGTATGAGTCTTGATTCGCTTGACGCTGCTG", "fluorescence intensity [a.u.]": 14100}
{"Sequence": "CCAGGGGAGTAGTGAACCGTGCCAGCACCTCGGGTAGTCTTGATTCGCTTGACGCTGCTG", "fluorescence intensity [a.u.]": 6660}
{"Sequence": "TGCGCAACAACTTGAGAAGTGGGTGTATGTCTAGAAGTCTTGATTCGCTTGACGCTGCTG", "fluorescence intensity [a.u.]": 4430}
{"Sequence": "CATACCCAACCTTTTCACGTGCATTAAGATATTTGTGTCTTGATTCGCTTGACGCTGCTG", "fluorescence intensity [a.u.]": 14400}
{"Sequence": "AGAGGGTAGCTTGCTGACATGCAGACCTCTCCCCGGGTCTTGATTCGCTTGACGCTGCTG", "fluorescence intensity [a.u.]": 5270}
{"Sequence": "CTTGCAAACCCTTCACACGTGGACCATGACGAATTTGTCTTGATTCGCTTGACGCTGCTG", "fluorescence intensity [a.u.]": 17900}
{"Sequence": "AGTTGATTTTTTTTTCTCGTGGTGAGAGATAAATAAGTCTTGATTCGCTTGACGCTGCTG", "fluorescence intensity [a.u.]": 6840}
{"Sequence": "TGCCAAGCGTGGAGGAACGTGTGAATTCCCTAACTAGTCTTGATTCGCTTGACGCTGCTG", "fluorescence intensity [a.u.]": 12300}
{"Sequence": "TGGCAACAGAGAAAGCACGCTTGTAGAACCAACCTTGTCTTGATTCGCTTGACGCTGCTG", "fluorescence intensity [a.u.]": 7240}
{"Sequence": "TCCAACTGAGTCCATCACGCAGGCACCAGAAGCTGCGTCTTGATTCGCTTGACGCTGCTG", "fluorescence intensity [a.u.]": 4950}
{"Sequence": "AACAATCTTCATAGCAACGTGAGTCTTGTTTACCATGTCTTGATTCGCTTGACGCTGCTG", "fluorescence intensity [a.u.]": 11100}
{"Sequence": "AAAGCGGTAATTTGACTTGTGGGTGCAGATATCTATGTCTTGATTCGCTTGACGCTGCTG", "fluorescence intensity [a.u.]": 5250}
{"Sequence": "GTCTTGTCTCATTGTCACGAAACTTTCCCCACTTCAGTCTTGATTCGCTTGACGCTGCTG", "fluorescence intensity [a.u.]": 4020}
{"Sequence": "TCCTTGCAGTACTATCACCTGCACCGGTTACCATCCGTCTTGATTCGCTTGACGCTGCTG", "fluorescence intensity [a.u.]": 4970}
{"Sequence": "ATATAAACGGATGAAAACGTGTTGATAATTGCATCAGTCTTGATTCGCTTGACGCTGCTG", "fluorescence intensity [a.u.]": 13300}
{"Sequence": "TTCAACGCCCTGGCTGATGTGACGCTGTTGGTGGAGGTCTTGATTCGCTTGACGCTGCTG", "fluorescence intensity [a.u.]": 4430}
{"Sequence": "GACCAGGAAAAAGATAGCGTGCAAAGCAGGACGATAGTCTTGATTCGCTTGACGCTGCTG", "fluorescence intensity [a.u.]": 5570}
{"Sequence": "TTCCTAAAGGAGCCCGGCGTGCCAGCCATCAGAATTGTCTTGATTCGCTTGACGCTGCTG", "fluorescence intensity [a.u.]": 6960}
{"Sequence": "AAATTACTAAGTTGCTAGGTGGGTGACGCCGTATGAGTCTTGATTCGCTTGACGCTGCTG", "fluorescence intensity [a.u.]": 3940}
{"Sequence": "GCGATCCTTTTTTAGCACGTGAACGGTAATAACGGGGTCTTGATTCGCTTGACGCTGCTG", "fluorescence intensity [a.u.]": 12600}
{"data": "Set 2", "target": "CCND2, cyclin fold, Cln2 fusion (human)", "technique": "yeast growth competition, sequencing", "medium": "yeast", "notes": "weak parent motif", "reference": "not given", "direction": "higher = stronger binding", "parent": "CDKN1B docking peptide (human); PSACRNLFGPVDH"}
{"Variant": "L7T", "normalised enrichment score": 0.0649}
{"Variant": "C4V", "normalised enrichment score": 0.0566}
{"Variant": "D12V", "normalised enrichment score": 0.112}
{"Variant": "D12R", "normalised enrichment score": 0.215}
{"Variant": "R5A L7A", "normalised enrichment score": -0.0311}
{"Variant": "D12N", "normalised enrichment score": 0.318}
{"Variant": "S2L", "normalised enrichment score": 0.202}
{"Variant": "A3H", "normalised enrichment score": 0.215}
{"Variant": "V11S", "normalised enrichment score": 0.0567}
{"Variant": "C4N", "normalised enrichment score": 0.225}
{"Variant": "D12K", "normalised enrichment score": 0.106}
{"Variant": "F8I", "normalised enrichment score": 0.434}
{"Variant": "N6C", "normalised enrichment score": 0.247}
{"Variant": "D12Q", "normalised enrichment score": 0.416}
{"Variant": "G9H", "normalised enrichment score": 0.11}
{"Variant": "V11L", "normalised enrichment score": 0.285}
{"Variant": "A3Q", "normalised enrichment score": 0.384}
{"Variant": "P1G", "normalised enrichment score": 0.356}
{"Variant": "P10Y", "normalised enrichment score": 0.462}
{"Variant": "P10C", "normalised enrichment score": 0.0895}
{"Variant": "F8T", "normalised enrichment score": 0.154}
{"Variant": "L7H", "normalised enrichment score": 0.0616}
{"Variant": "S2C", "normalised enrichment score": -0.0111}
{"Variant": "F8C", "normalised enrichment score": -0.188}
{"Variant": "P1R", "normalised enrichment score": 0.291}
{"data": "Set 3", "target": "RNA binding protein fox-1 homolog 2, RRM domain, GST-SBP tag (RBFOX2, Homo sapiens, UniProt O43251-10, residues 100-194)", "technique": "RNA Bind-n-Seq", "molecule type": "RNA", "medium": "in vitro", "concentration": "365 nM", "notes": "natural RNA segment, single round, ends assumed", "reference": "no-protein control", "direction": "higher = stronger binding", "Residues (chain)": "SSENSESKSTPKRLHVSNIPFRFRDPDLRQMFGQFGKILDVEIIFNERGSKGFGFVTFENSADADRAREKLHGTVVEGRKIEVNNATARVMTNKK"}
{"Sequence": "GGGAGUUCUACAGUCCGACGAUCCACUUGGCUCCCAUAGCCCUCUUGAUGGAUCACGUAAAACUGAAAGGCAGCGGGGAGCAGACAAAGAUGAGGUCUACACUGUCCUUCAUGGGGAUUAAAGCUAUGGUUAUUGGAAUUCUCGGGUGCCAA", "RBNS enrichment (R)": 0.493}
{"Sequence": "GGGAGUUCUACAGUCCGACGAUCCCUCUUCUCUCGCAGCCCUGAUGGGGGAAAGGGAGUUGGGUACUGCUUGUGGUUUAGGUUCCCCUCUCCUUUUUUUCUUUUUAAUUCAAUUUGGAAUCAGAAAGCUGGAUUGGAAUUCUCGGGUGCCAA", "RBNS enrichment (R)": 0.614}
{"Sequence": "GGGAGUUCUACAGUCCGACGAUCUUUCAGUGACAAAUCAGAGUUUCUUACAAGUUAUUGUCCUGCUCCCUUCCAAGUUGUCUUGAAGAAUCCUUGCUGCUAACUCUGGAUCCUGCUUUUCCUAUAGUCAGAGGUGGAAUUCUCGGGUGCCAA", "RBNS enrichment (R)": 0.527}
{"Sequence": "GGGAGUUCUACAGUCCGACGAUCCGGCGGACCUGCAGAUGACCUGGAGUUCCUGAUUCAGGUCCCUGUCUGCAGCCCGGGCUGCCUGGGCCACAGCCUGCCAGUGUGGGCAGUGUGACGAAAGGCGGCCUGUAUGGAAUUCUCGGGUGCCAA", "RBNS enrichment (R)": 0.291}
{"Sequence": "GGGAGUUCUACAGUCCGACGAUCCCUUAGGCUCACAGUUCAGAUCUGCAUGCAUUGCUUGCAUUGUUCUGGUAUCUGAAUGUUGAUUCCUCAUUUAGGAGUUCAGCAUUAAUUUCCAAAAUUUUCAUGGGGCUUGGAAUUCUCGGGUGCCAA", "RBNS enrichment (R)": 0.818}
{"Sequence": "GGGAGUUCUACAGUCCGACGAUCAGUCUGUGAGAGGGAGUCUCUCCUAGGCCAGAUGUGGGUUUCUGUACUCCAAGAGGAUAGGGAGGGCACUGCACCCAAGCAGGAGGUGAGGUCUGUCACUAGGCAGGAAAUGGAAUUCUCGGGUGCCAA", "RBNS enrichment (R)": 0.749}
{"Sequence": "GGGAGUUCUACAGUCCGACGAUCUAACUGUCCCAGCGACAUUUCUCCAAGUGGAAAUCCUAUUUUUGUAGAUCUCCAUGCUUUGCUCUCAAGGCUUGGAGAGGUAUGUGCCCCUCCUGGGUGCUCACCGCCUGUGGAAUUCUCGGGUGCCAA", "RBNS enrichment (R)": 0.298}
{"Sequence": "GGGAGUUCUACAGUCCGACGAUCUUUAUAAAUGUCAACUAUAUAAAAAAAGCUCAAAACAGUGUUAAAGGAAUGAACAGUAGAAUUUUAAUAGGCUGUCCAAAGAAGCCAGGUCUGCUGUGGGCAAGUAUAGCUGGAAUUCUCGGGUGCCAA", "RBNS enrichment (R)": 0.414}
{"Sequence": "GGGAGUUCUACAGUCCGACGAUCUCCCUGGCGUCCUUCUGAAACUACACCAUGUGGCCCCUUGGAACUAAUCCCAAGUCAAUGCGUGUAUCCCCUGCCAGGCUGCCUCAGCCUCCCUCCCCAUUACCCACUCUUGGAAUUCUCGGGUGCCAA", "RBNS enrichment (R)": 0.539}
{"Sequence": "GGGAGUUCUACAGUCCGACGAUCUUACCUUCAGCUGUCUCAGGAAGACCUUGCUGUCCCAGAGUGUACUGAGAGCAUCACUAUCAGGCAUGUGUUACCAAAAAACUGGCAGAAUCAGAAACUCAUUUACAUAAUGGAAUUCUCGGGUGCCAA", "RBNS enrichment (R)": 2.02}
{"Sequence": "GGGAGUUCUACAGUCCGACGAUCUAGGCUAAUGAUGUUCACUCAUUCUUUGAGGCAGUAGUUACCUAGGCAGACACUUUAGGUUGGUACUUUUAUUCUAAAAGCCUUUUUAAGGGUAAUCUUCCUUCUCUGAUUGGAAUUCUCGGGUGCCAA", "RBNS enrichment (R)": 0.231}
{"Sequence": "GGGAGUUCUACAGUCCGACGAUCAUGUUGCGUGUGUCUGUCUGUGAGCCUUUCACACCUGUGCUGGCGCUGGAAAAUUAUUUGUGCUCAGCUGACAUUUAACACUCCCUCCCCCGCUUCCUCCUAGCCCUGUGUGGAAUUCUCGGGUGCCAA", "RBNS enrichment (R)": 0.678}
{"data": "Mixed results"}
{"Molecule": "PhoQ, residues 284 288 289 292 302 303 AMDMFI", "target": "PhoP, residues 12 14 15 18 19 VHSCL (Escherichia coli, UniProt P23836)", "test": "Sort-seq, measured: YFP reporter", "system": "E. coli", "setting": "PhoQ-PhoP variant library, together with: 10 µM Mg2+", "scale": "reference: high Mg2+ state, higher = stronger signaling", "measurement": "fold induction", "value": 0.575}
{"note": "For quick reference, copied from above (set 1):"}
{"Sequence": "GTCTTGTCTCATTGTCACGAAACTTTCCCCACTTCAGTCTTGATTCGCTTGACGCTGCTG", "fluorescence intensity [a.u.]": 4020}
{"Sequence": "TGCGCAACAACTTGCTTGGTGGGTGTATGTCTAGAAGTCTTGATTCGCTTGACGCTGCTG", "fluorescence intensity [a.u.]": 3790}
{"Sequence": "CAATTTCATATTCACCACGTGCCGAACTTTGGGATGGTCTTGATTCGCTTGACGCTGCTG", "fluorescence intensity [a.u.]": 18900}
{"Sequence": "GACCAGGAAAAAGATAGCGTGCAAAGCAGGACGATAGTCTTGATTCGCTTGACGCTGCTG", "fluorescence intensity [a.u.]": 5570}
{"Sequence": "CCAGGGGAGTAGTGAACCGTGCCAGCACCTCGGGTAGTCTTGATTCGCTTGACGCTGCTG", "fluorescence intensity [a.u.]": 6660}
{"Sequence": "TCCTTGCAGTACTATCACCTGCACCGGTTACCATCCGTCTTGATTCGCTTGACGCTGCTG", "fluorescence intensity [a.u.]": 4970}
{"Sequence": "AGTTGATTTTTTTTTCTCGTGGTGAGAGATAAATAAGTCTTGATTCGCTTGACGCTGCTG", "fluorescence intensity [a.u.]": 6840}
